# Measurements from different studies.
# A part holds a random share of what one study measured.

# Block 1 — technique: universal PBM; molecule type: double-stranded DNA, one strand shown; matrix: in vitro; tested at: 600 nM; reading: higher = stronger binding
# Target: Sal-like protein 4, full length isoform A (SALL4, Homo sapiens, UniProt Q9UJQ4, residues 1-1053)
# UniProt Q9UJQ4, sequence (whole entry, looked up): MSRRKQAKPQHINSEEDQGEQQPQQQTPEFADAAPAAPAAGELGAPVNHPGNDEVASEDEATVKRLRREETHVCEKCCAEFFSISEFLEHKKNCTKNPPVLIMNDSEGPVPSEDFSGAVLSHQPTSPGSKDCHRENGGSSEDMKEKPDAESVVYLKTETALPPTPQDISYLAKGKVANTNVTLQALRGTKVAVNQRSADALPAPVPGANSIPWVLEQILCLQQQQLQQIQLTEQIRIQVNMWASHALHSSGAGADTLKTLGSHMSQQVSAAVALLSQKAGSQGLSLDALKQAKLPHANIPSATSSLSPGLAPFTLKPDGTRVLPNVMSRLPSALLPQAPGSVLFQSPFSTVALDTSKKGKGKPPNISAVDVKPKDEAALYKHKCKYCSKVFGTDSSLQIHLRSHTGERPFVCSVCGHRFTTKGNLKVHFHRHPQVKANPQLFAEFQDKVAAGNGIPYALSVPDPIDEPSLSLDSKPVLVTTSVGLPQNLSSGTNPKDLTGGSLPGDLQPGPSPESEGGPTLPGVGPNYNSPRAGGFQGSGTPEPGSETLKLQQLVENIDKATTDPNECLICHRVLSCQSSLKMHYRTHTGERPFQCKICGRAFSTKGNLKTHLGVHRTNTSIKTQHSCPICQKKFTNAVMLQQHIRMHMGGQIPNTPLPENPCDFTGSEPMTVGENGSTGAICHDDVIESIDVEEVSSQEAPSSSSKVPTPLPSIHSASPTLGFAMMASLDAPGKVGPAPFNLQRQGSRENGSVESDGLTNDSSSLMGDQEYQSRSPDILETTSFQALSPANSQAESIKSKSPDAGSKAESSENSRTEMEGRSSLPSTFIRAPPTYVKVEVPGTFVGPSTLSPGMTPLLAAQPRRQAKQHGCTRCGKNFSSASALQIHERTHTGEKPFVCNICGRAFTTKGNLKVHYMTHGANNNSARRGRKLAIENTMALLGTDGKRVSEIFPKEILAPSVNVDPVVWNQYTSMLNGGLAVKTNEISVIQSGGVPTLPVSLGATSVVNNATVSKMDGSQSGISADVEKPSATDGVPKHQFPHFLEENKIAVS
# Setting: 8-mer, flanks averaged, mean of replicates
Strand,E-score
ATAAGCTC,0.115
AACGAACC,-0.124
ATAAGCGA,0.235
CCCACACG,-0.147
AAACGCAA,0.0885
ATAAAAGA,0.258
ACACTCGA,-0.0938
AATGAAGG,0.112
ACGTCCCC,-0.205
CGTACCTA,-0.192
AGATAGGA,0.106
CTTGCTCC,0.0169
AGGCCACG,-0.285
CGATCGCA,0.0227
ATCCCCTC,-0.0718
CAGAACCA,-0.0974
AATTCTTG,0.208
AAACTTTC,0.2
ACGAAATC,0.08
GTACAGCA,-0.0397
CTCGAGAA,-0.153
TCCCTGAA,0.00128
CCTATACA,0.207
CATAGTTA,0.33
AGCTTTGC,-0.0192

# Block 2 — technique: RNA Bind-n-Seq; molecule type: RNA; matrix: in vitro; tested at: 365 nM; relative to: no-protein control; reading: higher = stronger binding
# Target: RNA binding protein fox-1 homolog 2, RRM domain, GST-SBP tag (RBFOX2, Homo sapiens, UniProt O43251-10, residues 100-194)
# Setting: natural RNA segment, single round, ends assumed
# Constant ends, left off below: GGGAGUUCUACAGUCCGACGAUC … UGGAAUUCUCGGGUGCCAA
# Construct (chain): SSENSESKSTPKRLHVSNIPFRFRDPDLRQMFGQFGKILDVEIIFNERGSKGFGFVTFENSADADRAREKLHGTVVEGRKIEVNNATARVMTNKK
Strand,RBNS enrichment (R)
CACCGUAGCAGGUAGACAGAUGGAGGAUGGCUGGGGAAGGGAGUUGUGGGCUGAAGUUUAGGGGACUGCAGACACAUCUGGGCCCAGUCCUCAGCUGUUCCUUGCUGGUA,0.558
AACUACAUGCAUCUGUGAAAACAUGUGUAUUUAUGAAGGUGGACUUGAAGCUGCCCAGGAUUUUAACAGUCCAGUUCUACUGUAGCAACAUAGCAAAAAGAAAGUGGCUA,0.266
GCUGCCAGUCUUUCUCCCCUGCAGCUUCCUCUGCUUCUGGAAUGAACCAUGUAUCCUGGAGACCCUCCCAAUGGAUGAGAGUGGAAAGACAUCAGUACAACUGGACUUGG,0.743
CUGGGGAGGUUGUGGUGCAGCUGAGUGAGGACCUGCUGUCCCAGGCAGUGAUGAUGGUGGAGAACAGCCGGCCCACAUUGGCGAUCAACCUGACCGGAGCCCGCCAGUAC,0.467
AGAUUUGAAUAAUGACCAAUUCUAAAAUCAAUAACGUUCCAUUUGCUUAUGUAGCACUUCUGGACCCUGCUAUAAGCUGAGAAGUCUAGAGGUUGGUUUGGGGACCAACC,0.801
GGUCUGGAAGGUCUGGUCUCCCUUGGUCUUCCAUGGGAUGCUUAAUGUGGAGGGGAGAUAGAGAUUAACCAGCCGUUUUGUGAUGCCGUGGAUUGAUCAAGUCUUCUGAU,2.13
AUAGGGACAUACCAGAUGUUGCAGUGAUUUUAGCUAUCAACAAACUGUUAACCAUGUACAAUAUUUAAAAUAGGCUUAUUUUGAUGUAUCGCCUAUUAUACAAACACACA,0.408
UCCAAAAUAACUAGGAUCUGCAUUUAGAACAAGAAUCAUUAUUUGUCCUGACCUUUUCAGUCCUACAGAGACGCAUCUGUGGUUCUUUUGUACUUGCCAUAGAUGUAACC,0.493
GACCGCAUUUUCUCUUGGUUUCUAAAAGGAAGGGAAUCUUCCCGAUUUUUCUAAGAUGUUGAGUAUUGUGUAAGUAAGCUUUGAGUCUUUGAACCUGAUUGAAAUGCAAA,0.524
UCCCAGCUUCAGUGCUCUUUUCCUUUUUGCCUGAAAUGUUUAUGCUUCUCUGCAGCCAGUCCUCUAACAAAUCUCAAGAACAAAGGUAAGACACUUGGUUUUUGUUUCCA,1.29
CUAGAGUUGAUACUGAUAAUAUAUUUUAAUUUUUAUUGAUGUUUAAUACCUUCUGAAACAGGAGGGUAAGAUCAGAUGGGAAGCCCCUCUGUUGAAGGAUCUUGGGAACC,0.294
CAUGUCAACUCCUGUACUUCCCUUACUCUGUUGCCUUUCUUGAGAUGCAUUGUCCUGCUAACCCACAAACCUGUUUGGAAAUAAACAUGGAAGAAUAUCUGGCAGGCUUA,0.332

# Block 3 — technique: protein binding microarray; molecule type: double-stranded DNA, one strand shown; matrix: in vitro; tested at: not given; relative to: not given; reading: higher = stronger binding
# Target: Histone acetyltransferase KAT6A, winged helix 2, GST fusion (KAT6A, Homo sapiens, UniProt Q92794, residues 85-181)
# Setting: 8-mer, flanks averaged, mean of 2 arrays, mostly near background
# Residues (chain): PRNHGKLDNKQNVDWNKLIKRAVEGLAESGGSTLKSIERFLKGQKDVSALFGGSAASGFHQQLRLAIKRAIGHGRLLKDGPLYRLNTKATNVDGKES
Strand,E-score
ACTTATGA,-0.101
ATCCTAAC,-0.00602
ATCGCCAC,-0.0824
GACCGTTA,-0.167
ACCCAGGA,0.0259
GACATACA,-0.116
TCAGCAAA,0.201
ACGGTATC,-0.0165
CTGTTAAG,-0.0281
ATTACATG,-0.106
ATTCAGGG,0.0942
CTGGCTAC,-0.037
ATGATAGC,0.21
AACAACGA,-0.0777
GTGCTAAA,0.0908
GTCACGTA,-0.283
AATCAGAT,-0.00515
TTCTCAAA,0.0897
TGGGTTAA,-0.0154
AGTACGCA,0.0242
CGTGCGGA,0.0455

# Block 4 — technique: protein-binding microarray; molecule type: double-stranded DNA, one strand shown; matrix: in vitro; tested at: 0.8 µM; setting: whole 60-bp probe, no competitor; reading: higher = stronger binding; constant ends, left off below: … GTCTTGATTCGCTTGACGCTGCTG
# Target: Centromere-binding protein 1, full length, N-terminal tag (CBF1, Saccharomyces cerevisiae, UniProt P17106, residues 1-351)
# UniProt P17106, sequence (whole entry, looked up): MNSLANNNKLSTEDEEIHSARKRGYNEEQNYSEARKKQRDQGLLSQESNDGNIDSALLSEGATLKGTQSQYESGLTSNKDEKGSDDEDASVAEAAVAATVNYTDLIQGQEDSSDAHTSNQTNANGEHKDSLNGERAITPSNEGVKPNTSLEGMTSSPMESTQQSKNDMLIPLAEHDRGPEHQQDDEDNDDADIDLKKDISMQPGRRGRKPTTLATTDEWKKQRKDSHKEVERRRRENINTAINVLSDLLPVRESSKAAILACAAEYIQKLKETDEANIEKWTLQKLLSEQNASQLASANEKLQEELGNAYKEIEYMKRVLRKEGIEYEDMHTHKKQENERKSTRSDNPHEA
Strand,fluorescence intensity [a.u.]
CTATGAGTTCTACGTGGTGCAAAAATATTTTTTTTC,547
GAAGATGTGTTTTATCACGAGGCCCAATCGAAATAG,965
CTAAAATAGCATTTGCGTGCTTAAGTGAAATTTTTC,502
CTAGCCCAAACCAACGTCGTGATTGCTTCTTCCTTC,592
GAATACACATTCGTTCTCCTGATCACGGTCTCATAG,1190
CTAGCCCCACGCCCCCACGTTGTTGAGGTGTTTTTC,540
CTACGACCGAATCCACCCGTGATGCCAACTTCATTC,703
CTAAAAGTGATTTATCAGATGAAAGGCAAATCTTTC,510
CTAACGCGTCCACACCACCTCACCCTCGAAATGTTC,569
GAATGAATGATATTTCACATGGTGGATGCCATCTAG,531
GAAGTAGATTCTCCTGATGACCCATTCATGACATAG,537
TGTACGAAGCTATATCATATGAATATAGTAGTTAGG,519
GAATCTGTGCATTGGCATGTGCAAGCATTCGATTAG,591
TGTACGAAGCTATTGATCGTGGTTATAGTAGTTAGG,531
GAAAAGGTATCTCTGATGCTGACATTGCTAAGTTAG,533
CTATCATCTTCCTGGAACGTGACTTCCGTAGGCTTC,3640
GAAGAGTGTGTACATGTGACAAAAAAGATTGGATAG,4490
CTAGGCTGATTACTTCATATGATCACTAATTAATTC,691
GAATCACTTGATGTCATCAAGGCATTCACCAGATAG,550
GAATCAACTATCACTTACACCTGAGTGTTGTCATAG,502
CTACGTAATTGGAAACACGCAATTTTAACTTTGTTC,522

# Block 5 — technique: protein-binding microarray; molecule type: double-stranded DNA, one strand shown; matrix: in vitro; tested at: 2540 nM top; setting: 60-bp whole probe; together with: salmon DNA 0.4 mg/ml; relative to: random background probes; reading: higher = stronger binding; constant ends, left off below: GCCTAGCAC … GTCTTGATTCGCTTGACGCTGCTG
# Target: Interferon regulatory factor 3, full length, phosphomimetic (IRF3, Homo sapiens, UniProt Q14653, residues 1-427, S386D/S396D/S398D/S402D/T404D/S405D)
# Construct (chain): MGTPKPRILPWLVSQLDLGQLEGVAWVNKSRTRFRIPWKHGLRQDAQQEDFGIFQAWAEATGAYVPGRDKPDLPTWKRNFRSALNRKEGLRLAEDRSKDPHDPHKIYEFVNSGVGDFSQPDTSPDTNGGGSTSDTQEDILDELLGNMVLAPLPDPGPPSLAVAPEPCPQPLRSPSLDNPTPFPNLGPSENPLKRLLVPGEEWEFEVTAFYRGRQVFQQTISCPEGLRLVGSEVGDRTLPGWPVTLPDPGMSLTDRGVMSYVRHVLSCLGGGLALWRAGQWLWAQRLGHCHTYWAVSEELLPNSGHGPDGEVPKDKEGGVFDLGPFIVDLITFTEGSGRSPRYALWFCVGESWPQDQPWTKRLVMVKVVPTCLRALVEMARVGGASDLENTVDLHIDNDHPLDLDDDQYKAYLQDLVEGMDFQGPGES
Strand,fitted relative affinity [z-score]
TTAGGTATCGACCTTCGGTTAGTGCTA,0.351
GACGGTTTCCTTCTTCTGACGTGCTAG,9.75
ATGCATTGTTATTTGTCAATGTGCTAG,0.167
TTCGGTTTCCTTTTCCTTTAGTGCTAG,11.8
GACTATTTCAGTCTCGAGACGTGCTAG,1.68
TCATGTATATATGTGTAACTGTGCTAG,-0.0325
GACGGTATCGTGACTGGGGACGTGCTA,0.413
CAGCTTTTATCCCTGACAGAGTGCTAG,0.527
GACGGACTGGAGTTTCGGGACGTGCTA,1.14
GACGAACTGAGTATCGCGACGTGCTAG,-0.24
TGAGATATCAGACTGGATTAGTGCTAG,-0.0552
CCCAATCTCTCTTCACATATGTGCTAG,2.03
TTAGGTTCCCTTTTCGTTTAGTGCTAG,7.29
TTAGATATCGGGTTTAGATTAGTGCTA,0.399
GACGAGTTCAGTATCGAGACGTGCTAG,0.715
TTAGATCTCAGTCTCGATCAGTGCTAG,0.444
TTAGGTTCCGATTTCGGTTAGTGCTAG,5.69
TCAATCTTCAAGACTCATACTGTGCTA,0.354
TTAGGTATCCTTTCCCTTTAGTGCTAG,7.63
GACGGTCTCGGATTGGGGACGTGCTAG,0.575
CTAGCTTCCATTTTCTGAACGTGCTAG,2.86
TTAGGACTGGGTTTCGGTTTGTGCTAG,5.22
GACGGTTTCGGTTTCGGGGCGTGCTAG,10.5
TTAGGTCTCGGACTGCGTTAGTGCTAG,-0.307
GACGAAATCAGACTGGAGACGTGCTAG,0.0887

# Some of these lines once more (block 1):
Strand,E-score
ACACTCGA,-0.0938
ACGTCCCC,-0.205
CTTGCTCC,0.0169
ACGAAATC,0.08
AGCTTTGC,-0.0192
AAACGCAA,0.0885
ATAAGCGA,0.235
AACGAACC,-0.124
ATCCCCTC,-0.0718
CGTACCTA,-0.192
CGATCGCA,0.0227
AGGCCACG,-0.285
